Published values pooled from the literature.
Each line is one published result; not all experiments were run side by side.
B1: CLTB (Bos taurus, UniProt P04975); sequence looked up; chain MADDFGFFSSSESGAPEAAEEDPAAAFLAQQESEIAGIENDEGFGAPAGSQGGLAQPGPASGASEDMGATVNGDVFQEANGPADGYAAIAQADRLTQEPESIRKWREEQRKRLQELDAASKVMEQEWREKAKKDLEEWNQRQSEQVEKNKINNRIADKAFYQQPDADIIGYVASEEAFVKESKEETPGTEWEKVAQLCDFNPKSSKQCKDVSRLRSVLMSLKQTPLSR
B2: PSMD10 1-226 (Homo sapiens, UniProt O75832); chain MEGCVSNLMVCNLAYSGKLEELKESILADKSLATRTDQDSRTALHWACSAGHTEIVEFLLQLGVPVNDKDDAGWSPLHIAASAGRDEIVKALLGKGAQVNAVNQNGCTPLHYAASKNRHEIAVMLLEGGANPDAKDHYEATAMHRAAAKGNLKMIHILLYYKASTNIQDTEGNTPLHLACDEERVEEAKLLVSQGASIYIENKEEKTPLQVAKGGLGLILKRMVEG
B3: POMP (Homo sapiens, UniProt Q9Y244); chain MNARGLGSELKDSIPVTELSASGPFESHDLLRKGFSCVKNELLPSHPLELSEKNFQLNQDKMNFSTLRNIQGLFAPLKLQMEFKAVQQVQRLPFLSSSNLSLDVLRGNDETIGFEDILNDPSQSEVMGEPHLMVEYKLGLL
B4: ELM1 S519D (Saccharomyces cerevisiae, UniProt P32801); sequence looked up; chain MSPRQLIPTLIPEWAPLSQQSCIREDELDSPPITPTSQTSSFGSSFSQQKPTYSTIIGENIHTILDEIRPYVKKITVSDQDKKTINQYTLGVSAGSGQFGYVRKAYSSTLGKVVAVKIIPKKPWNAQQYSVNQVMRQIQLWKSKGKITTNMSGNEAMRLMNIEKCRWEIFAASRLRNNVHIVRLIECLDSPFSESIWIVTNWCSLGELQWKRDDDEDILPQWKKIVISNCSVSTFAKKILEDMTKGLEYLHSQGCIHRDIKPSNILLDEEEKVAKLSDFGSCIFTPQSLPFSDANFEDCFQRELNKIVGTPAFIAPELCHLGNSKRDFVTDGFKLDIWSLGVTLYCLLYNELPFFGENEFETYHKIIEVSLSSKINGNTLNDLVIKRLLEKDVTLRISIQDLVKVLSRDQPIDSRNHSQISSSSVNPVRNEGPVRRFFGRLLTKKGKKKTSGKGKDKVLVSATSKVTPSIHIDEEPDKECFSTTVLRSSPDSSDYCSSLGEEAIQVTDFLDTFCRSNEDLPNLTVNNDKQNSDMKTDRSESSSHSSLKIPTPIKAMIRLKSSPKENGNRTHINCSQDKPSSPLMDRTVGKRTVNNSGARKLAHSSNILNFKAYINSEDSDIRETVEDVKTYLNFADNGQI
B5: SPOP 28-359 (Homo sapiens, UniProt O43791); sequence looked up; chain KVVKFSYMWTINNFSFCREEMGEVIKSSTFSSGANDKLKWCLRVNPKGLDEESKDYLSLYLLLVSCPKSEVRAKFKFSILNAKGEETKAMESQRAYRFVQGKDWGFKKFIRRDFLLDEANGLLPDDKLTLFCEVSVVQDSVNISGQNTMNMVKVPECRLADELGGLWENSRFTDCCLCVAGQEFQAHKAILAARSPVFSAMFEHEMEESKKNRVEINDVEPEVFKEMMCFIYTGKAPNLDKMADDLLAAADKYALERLKVMCEDALCSNLSVENAAEILILADLHSADQLKTQAVDFINYHASDVLETSGWKSMVVSHPHLVAEAYRSLASA
B6: INF2 941-1249 (Homo sapiens, UniProt Q27J81-1); FITC label; sequence looked up; chain KQQLAEEEARRPRGEDGKPVRKGPGKQEEVCVIDALLADIRKGFQLRKTARGRGDTDGGSKAASMDPPRATEPVATSNPAGDPVGSTRCPASEPGLDATTASESRGWDLVDAVTPGPQPTLEQLEEGGPRPLERRSSWYVDASDVLTTEDPQCPQPLEGAWPVTLGDAQALKPLKFSSNQPPAAGSSRQDAKDPTSLLGVLQAEADSTSEGLEDAVHSRGARPPAAGPGGDEDEDEEDTAPESALDTSLDKSFSEDAVTDSSGSGTLPRARGRASKGTGKRRKKRPSRSQEEVPPDSDDNKTKKLCVIQ
B7: PRP40 351-415 (Saccharomyces cerevisiae, UniProt P33203); chain NYTRDRIARDNFKSLLREVPIKIKANTRWSDIYPHIKSDPRFLHMLGRNGSSCLDLFLDFVDEQR
B8: VPS71 (Saccharomyces cerevisiae, UniProt Q03433); sequence looked up; chain MKALVEEIDKKTYNPDIYFTSLDPQARRYTSKKINKQGTISTSRPVKRINYSLADLEARLYTSRSEGDGNSISRQDDRNSKNSHSFEERYTQQEILQSDRRFMELNTENFSDLPNVPTLLSDLTGVPRDRIESTTKPISQTSDGLSALMGGSSFVKEHSKYGHGWVLKPETLREIQLSYKSTKLPKPKRKNTNRIVALKKVLSSKRNLHSFLDSALLNLMDKNVIYHNVYNKRYFKVLPLITTCSICGGYDSISSCVNCGNKICSVSCFKLHNETRCRNR
B9: dnaC 1-245 (Escherichia coli, UniProt P0AEF0); chain MKNVGDLMQRLQKMMPAHIKPAFKTGEELLAWQKEQGAIRSAALERENRAMKMQRTFNRSGIRPLHQNCSFENYRVECEGQMNALSKARQYVEEFDGNIASFIFSGKPGTGKNHLAAAICNELLLRGKSVLIITVADIMSAMKDTFRNSGTSEEQLLNDLSNVDLLVIDEIGVQTESKYEKVIINQIVDRRSSSKRPTGMLTNSNMEEMTKLLGERVMDRMRLGNSLWVIFNWDSYRSRVTGKEY
B10: lptC 24-191 (Escherichia coli, UniProt P0ADV9); sequence looked up; chain MAEKDDTAQVVVNNNDPTYKSEHTDTLVYNPEGALSYRLIAQHVEYYSDQAVSWFTQPVLTTFDKDKIPTWSVKADKAKLTNDRMLYLYGHVEVNALVPDSQLRRITTDNAQINLVTQDVTSEDLVTLYGTTFNSSGLKMRGNLRSKNAELIEKVRTSYEIQNKQTQP
B11: CENPI 57-281 (Homo sapiens, UniProt Q92674); sequence looked up; chain ADDQAEEDALQMAVGYFEKGPIKASQNKDKTLEKHLKTVENVAWKNGLASEEIDILLNIALSGKFGNAVNTRILKCMIPATVISEDSVVKAVSWLCVGKCSGSTKVLFYRWLVAMFDFIDRKEQINLLYGFFFASLQDDALCPYVCHLLYLLTKKENVKPFRVRKLLDLQAKMGMQPHLQALLSLYKFFAPALISVSLPVRKKIYFKNSENLWKTALLAVKQRNR
B12: CCDC32 101-179 (Mus musculus, UniProt Q8BS39); chain LRTLAQAKKECWDRFLQEKLASEFFVDGLDSDERTLEHFKRWLQPDKVAISTEEVQFLIPPESQAEKPEAGDKPAAAEQ
B13: CNOT2 350-540 (Homo sapiens, UniProt Q9NZN8); sequence looked up; chain MVTDQFGMIGLLTFIRAAETDPGMVHLALGSDLTTLGLNLNSPENLYPKFASPWASSPCRPQDIDFHVPSEYLTNIHIRDKLAAIKLGRYGEDLLFYLYYMNGGDVLQLLAAVELFNRDWRYHKEERVWITRAPGMEPTMKTNTYERGTYYFFDCLNWRKVAKEFHLEYDKLEERPHLPSTFNYNPAQQAF
B14: GPATCH4 (Homo sapiens, UniProt Q5T3I0); sequence looked up; chain MNVTPEVKSRGMKFAEEQLLKHGWTQGKGLGRKENGITQALRVTLKQDTHGVGHDPAKEFTNHWWNELFNKTAANLVVETGQDGVQIRSLSKETTRYNHPKPNLLYQKFVKMATLTSGGEKPNKDLESCSDDDNQGSKSPKILTDEMLLQACEGRTAHKAARLGITMKAKLARLEAQEQAFLARLKGQDPGAPQLQSESKPPKKKKKKRRQKEEEEATASERNDADEKHPEHAEQNIRKSKKKKRRHQEGKVSDEREGTTKGNEKEDAAGTSGLGELNSREQTNQSLRKGKKKKRWHHEEEKMGVLEEGGKGKEAAGSVRTEEVESRAYADPCSRRKKRQQQEEEDLNLEDRGEETVLGGGTREAESRACSDGRSRKSKKKRQQHQEEEDILDVRDEKDGGAREAESRAHTGSSSRGKRKRQQHPKKERAGVSTVQKAKKKQKKRD
B15: ATG9 864-997 (Saccharomyces cerevisiae, UniProt Q12142); sequence looked up; chain SFLNNKYSWRKQFQPGQKPELFRIGKHALGPGHNISPAIYSTRNPGKNWDNNNNGDDIKNGTNNATAKNDDNNGNNDHEYVLTESFLDSGAFPNHDVIDHNKMLNSNYNGNGILNKGGVLGLVKEYYKKSDVGR
B16: Sgip1 69-156 (Mus musculus, UniProt Q8VD37); sequence looked up; chain AEIDWERYNSPELDEEGYSIRPEEPGSTKGKHFYSSSESEEEEESHKKFNIKIKPLQSKDVLKNAATVDELKASIGNIALSPSPVRKS
B17: prw1 1-431 (Schizosaccharomyces pombe, UniProt O14021); chain MAVSAVPHPSKQAQASEEGINQEKCINEEYKIWKKNSPFLYDLIITRALEWPCMSLQWYPEQQIFAEHGYTEQKMFLGVRADVGKYLLAVASIQLPYLNQTVPPTTMEGASAGDESSLRVNISNLYSHPESVCSAKLMPQDDSCVATVGNYHNDVLVFDKESFESYSSASESPLKPKYRLTKHTQPCTSVCWNFLSKGTLVSGSQDATLSCWDLNAYNESDSASVLKVHISSHEKQVSDVRFHYKHQDLLASVSYDQYLHVHDIRRPDASTKPARSVHAHSGPIHSVAFNPHNDFILATCSTDKTIALWDLRNLNQRLHTLEGHEDIVTKISFSPHEEPILASTSADRRTLVWDLSRIGEDQPAEEAQDGPPELLFMHGGHTSCTIDMDWCPNYNWTMATAAEDNILQIWTPSRSIWGNEQLEEDATAYLS
B18: Creb1 bZIP 270-341 C300S/C310S/C337S (Rattus norvegicus, UniProt P15337-1); sequence looked up; chain SSPALPTQPAEEAARKREVRLMKNREAARESRRKKKEYVKSLENRVAVLENQNKTLIEELKALKDLYSHKSD
B19: TFC7 1-435 (Saccharomyces cerevisiae, UniProt Q12415); chain MVVNTIYIARHGYRSNWLPEGPYPDPLTGIDSDVPLAEHGVQQAKELAHYLLSLDNQPEAAFASPFYRCLETVQPIAKLLEIPVYLERGIGEWYRPDRKPVIPVPAGYEILSKFFPGVISQEWDSTLTPNEKGETEQEMYMRFKKFWPLFIERVEKEYPNVECILLVTHAASKIALGMSLLGYDNPRMSLNENGDKIRSGSCSLDKYEILKKSYDTIDETDDQTSFTYIPFSDRKWVLTMNGNTEFLSSGEEMNWNFDCVAEAGSDADIKKRQMTKKTSSPIPEADDQTEVETVYISVDIPSGNYKERTEIAKSAILQYSGLETDAPLFRIGNRLYEGSWERLVGTELAFPNAAHVHKKTAGLLSPTEENETTNAGQSKGSSTANDPNIQIQEEDVGLPDSTNTSRDHTGDKEEVQSEKIYRIKERIVLSNVRPM
UniProt P23804, sequence (whole entry, looked up): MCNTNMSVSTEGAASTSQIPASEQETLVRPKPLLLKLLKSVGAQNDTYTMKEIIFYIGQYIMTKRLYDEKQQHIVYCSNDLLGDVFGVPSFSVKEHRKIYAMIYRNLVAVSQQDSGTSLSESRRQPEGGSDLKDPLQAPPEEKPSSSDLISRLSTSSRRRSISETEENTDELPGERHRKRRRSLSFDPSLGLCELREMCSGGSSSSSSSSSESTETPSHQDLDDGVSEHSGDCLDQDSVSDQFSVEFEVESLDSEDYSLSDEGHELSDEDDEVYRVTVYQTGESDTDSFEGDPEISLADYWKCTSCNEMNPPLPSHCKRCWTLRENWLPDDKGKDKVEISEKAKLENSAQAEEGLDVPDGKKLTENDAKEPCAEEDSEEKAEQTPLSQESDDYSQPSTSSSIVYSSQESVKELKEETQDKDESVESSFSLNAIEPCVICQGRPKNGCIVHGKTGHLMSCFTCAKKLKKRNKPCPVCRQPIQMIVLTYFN
UniProt P34111, sequence (whole entry, looked up): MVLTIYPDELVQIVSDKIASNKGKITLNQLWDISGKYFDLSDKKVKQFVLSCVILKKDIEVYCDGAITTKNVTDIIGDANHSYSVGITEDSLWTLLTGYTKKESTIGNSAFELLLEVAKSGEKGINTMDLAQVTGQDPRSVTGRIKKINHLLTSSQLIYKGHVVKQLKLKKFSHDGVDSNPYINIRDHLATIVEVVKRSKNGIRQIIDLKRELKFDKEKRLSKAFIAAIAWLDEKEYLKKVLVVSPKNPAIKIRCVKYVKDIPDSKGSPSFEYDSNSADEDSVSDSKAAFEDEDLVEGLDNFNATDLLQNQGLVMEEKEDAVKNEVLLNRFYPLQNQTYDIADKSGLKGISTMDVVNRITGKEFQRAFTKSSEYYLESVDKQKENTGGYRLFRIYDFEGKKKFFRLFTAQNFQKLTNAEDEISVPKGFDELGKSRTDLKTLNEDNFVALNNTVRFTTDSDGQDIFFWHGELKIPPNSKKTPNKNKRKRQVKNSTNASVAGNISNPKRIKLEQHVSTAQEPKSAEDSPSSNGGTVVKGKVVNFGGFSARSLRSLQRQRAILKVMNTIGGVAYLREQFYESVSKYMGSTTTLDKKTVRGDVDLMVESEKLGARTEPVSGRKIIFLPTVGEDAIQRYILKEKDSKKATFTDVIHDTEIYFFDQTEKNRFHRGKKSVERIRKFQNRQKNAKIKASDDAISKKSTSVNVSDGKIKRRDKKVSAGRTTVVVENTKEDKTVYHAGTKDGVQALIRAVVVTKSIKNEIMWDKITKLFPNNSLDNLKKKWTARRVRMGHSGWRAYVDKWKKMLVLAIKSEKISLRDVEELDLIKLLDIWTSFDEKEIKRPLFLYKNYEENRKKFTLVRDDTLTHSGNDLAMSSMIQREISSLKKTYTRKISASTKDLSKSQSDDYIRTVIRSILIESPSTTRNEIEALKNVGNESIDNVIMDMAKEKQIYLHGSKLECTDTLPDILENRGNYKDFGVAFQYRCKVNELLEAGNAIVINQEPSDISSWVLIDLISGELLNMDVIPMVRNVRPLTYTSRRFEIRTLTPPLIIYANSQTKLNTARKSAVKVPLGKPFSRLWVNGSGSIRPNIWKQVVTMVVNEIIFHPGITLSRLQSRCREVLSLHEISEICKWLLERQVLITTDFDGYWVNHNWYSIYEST
UniProt Q12509, sequence (whole entry, looked up): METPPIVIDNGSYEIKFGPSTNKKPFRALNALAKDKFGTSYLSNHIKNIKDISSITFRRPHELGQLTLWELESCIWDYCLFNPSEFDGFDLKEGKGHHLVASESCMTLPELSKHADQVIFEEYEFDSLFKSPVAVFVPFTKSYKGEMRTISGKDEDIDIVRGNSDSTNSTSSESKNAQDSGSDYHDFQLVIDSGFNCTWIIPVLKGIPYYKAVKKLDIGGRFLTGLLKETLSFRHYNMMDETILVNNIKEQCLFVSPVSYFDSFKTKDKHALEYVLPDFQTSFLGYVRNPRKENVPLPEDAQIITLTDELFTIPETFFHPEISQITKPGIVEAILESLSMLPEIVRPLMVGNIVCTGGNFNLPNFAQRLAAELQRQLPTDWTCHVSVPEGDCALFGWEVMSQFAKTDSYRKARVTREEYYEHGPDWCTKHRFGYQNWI
UniProt P25787, sequence (whole entry, looked up): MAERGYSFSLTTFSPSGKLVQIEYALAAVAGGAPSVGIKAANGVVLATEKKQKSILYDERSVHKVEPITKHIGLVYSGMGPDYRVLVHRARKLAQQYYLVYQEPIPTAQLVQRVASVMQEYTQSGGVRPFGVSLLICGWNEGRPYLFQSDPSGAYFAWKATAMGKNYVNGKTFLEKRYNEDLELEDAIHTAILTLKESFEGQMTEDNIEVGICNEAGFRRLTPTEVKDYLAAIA
UniProt Q14671, sequence (whole entry, looked up): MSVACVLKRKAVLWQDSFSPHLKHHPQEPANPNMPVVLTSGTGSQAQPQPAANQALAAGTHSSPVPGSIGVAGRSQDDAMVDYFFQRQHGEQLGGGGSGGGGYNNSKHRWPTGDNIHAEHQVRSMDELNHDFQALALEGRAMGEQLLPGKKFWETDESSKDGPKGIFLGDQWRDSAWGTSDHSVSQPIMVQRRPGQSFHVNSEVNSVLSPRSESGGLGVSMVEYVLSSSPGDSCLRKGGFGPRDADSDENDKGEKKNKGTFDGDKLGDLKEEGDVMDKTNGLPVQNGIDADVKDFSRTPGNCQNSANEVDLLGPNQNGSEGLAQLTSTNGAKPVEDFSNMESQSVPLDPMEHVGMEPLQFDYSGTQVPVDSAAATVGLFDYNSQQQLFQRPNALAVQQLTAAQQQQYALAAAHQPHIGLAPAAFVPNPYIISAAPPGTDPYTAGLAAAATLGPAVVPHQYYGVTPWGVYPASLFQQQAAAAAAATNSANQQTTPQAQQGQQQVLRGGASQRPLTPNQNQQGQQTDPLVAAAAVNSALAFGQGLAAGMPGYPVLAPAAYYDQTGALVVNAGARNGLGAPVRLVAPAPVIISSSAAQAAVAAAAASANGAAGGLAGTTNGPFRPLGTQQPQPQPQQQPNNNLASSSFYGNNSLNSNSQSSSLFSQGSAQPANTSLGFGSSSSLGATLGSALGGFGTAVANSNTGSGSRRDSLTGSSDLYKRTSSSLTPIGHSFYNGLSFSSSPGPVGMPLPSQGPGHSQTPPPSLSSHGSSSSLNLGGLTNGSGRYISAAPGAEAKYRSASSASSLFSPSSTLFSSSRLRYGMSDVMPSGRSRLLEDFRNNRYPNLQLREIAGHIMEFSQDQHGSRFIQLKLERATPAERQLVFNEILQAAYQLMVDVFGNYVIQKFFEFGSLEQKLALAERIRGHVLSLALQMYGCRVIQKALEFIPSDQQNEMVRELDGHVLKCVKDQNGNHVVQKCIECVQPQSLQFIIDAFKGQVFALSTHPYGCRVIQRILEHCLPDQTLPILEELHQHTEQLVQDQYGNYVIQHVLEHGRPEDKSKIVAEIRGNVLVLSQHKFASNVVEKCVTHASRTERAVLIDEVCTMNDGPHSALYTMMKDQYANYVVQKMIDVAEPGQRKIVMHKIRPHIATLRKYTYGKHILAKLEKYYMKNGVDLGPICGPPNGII
UniProt P53207, sequence (whole entry, looked up): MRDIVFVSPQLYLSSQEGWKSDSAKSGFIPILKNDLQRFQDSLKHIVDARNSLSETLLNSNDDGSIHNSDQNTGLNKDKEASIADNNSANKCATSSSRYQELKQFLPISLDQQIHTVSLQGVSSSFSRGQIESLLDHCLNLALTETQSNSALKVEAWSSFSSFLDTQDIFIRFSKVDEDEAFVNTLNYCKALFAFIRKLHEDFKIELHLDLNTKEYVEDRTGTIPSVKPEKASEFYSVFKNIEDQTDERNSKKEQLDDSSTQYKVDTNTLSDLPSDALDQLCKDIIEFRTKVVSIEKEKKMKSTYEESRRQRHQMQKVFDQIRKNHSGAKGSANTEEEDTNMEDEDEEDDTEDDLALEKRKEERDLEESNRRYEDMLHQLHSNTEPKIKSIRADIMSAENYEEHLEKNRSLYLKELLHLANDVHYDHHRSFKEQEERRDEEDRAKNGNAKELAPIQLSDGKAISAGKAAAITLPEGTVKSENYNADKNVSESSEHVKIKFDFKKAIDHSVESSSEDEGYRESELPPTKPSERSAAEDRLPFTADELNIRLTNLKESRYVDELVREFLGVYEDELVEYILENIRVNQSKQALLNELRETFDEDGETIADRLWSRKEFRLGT
UniProt P0A9V1, sequence (whole entry, unmodified, looked up): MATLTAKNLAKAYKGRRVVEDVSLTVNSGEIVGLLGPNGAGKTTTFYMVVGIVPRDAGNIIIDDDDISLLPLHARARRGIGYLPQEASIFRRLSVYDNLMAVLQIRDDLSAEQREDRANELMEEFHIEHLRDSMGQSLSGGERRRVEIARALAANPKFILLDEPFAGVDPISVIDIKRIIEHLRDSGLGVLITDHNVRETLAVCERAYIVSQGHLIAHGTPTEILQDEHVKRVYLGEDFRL
UniProt P57768, sequence (whole entry, looked up): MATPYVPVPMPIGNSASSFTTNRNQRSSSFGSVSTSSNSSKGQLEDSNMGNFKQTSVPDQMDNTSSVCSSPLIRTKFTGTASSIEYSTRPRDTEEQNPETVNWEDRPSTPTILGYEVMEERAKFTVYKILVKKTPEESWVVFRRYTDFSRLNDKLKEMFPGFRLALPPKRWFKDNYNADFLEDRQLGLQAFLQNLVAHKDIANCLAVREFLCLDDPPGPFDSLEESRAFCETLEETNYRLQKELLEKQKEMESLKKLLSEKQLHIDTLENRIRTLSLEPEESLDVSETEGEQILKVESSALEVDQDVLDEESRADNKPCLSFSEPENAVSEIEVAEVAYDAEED

Substance | partner | test | system | conditions | binding
B1 (CLTB) | CLTC (Bos taurus, UniProt P49951) | co-sedimentation |  | pH 6.5 | binds
B2 (PSMD10 1-226) | Mdm2 (Mus musculus, UniProt P23804) | pull-down |  |  | binds
B3 (POMP) | PSMA2 (Homo sapiens, UniProt P25787) | cryo-EM |  |  | binds
B4 (ELM1 S519D) | GIN4 (Saccharomyces cerevisiae, UniProt Q12263) | pull-down |  |  | binds
SNX16 (Homo sapiens, UniProt P57768) | SNX4 (Homo sapiens, UniProt O95219) | pull-down |  |  | binds
B5 (SPOP 28-359) | AR 1-559, rhodamine label (UniProt P10275) | fluorescence polarization |  |  | binds
B6 (INF2 941-1249) | INF2 fragment (Homo sapiens) | fluorescence polarisation |  | apparent | binds
B7 (PRP40 351-415) | SNU71 (Saccharomyces cerevisiae, UniProt P53207) | pull-down |  |  | binds
B8 (VPS71) | ARP6 (Saccharomyces cerevisiae, UniProt Q12509) | cryo-EM |  |  | binds
KESALRKQDLLLEFDPLFR (TACC3 to 568 550-568 S558D/Y560L/K562E/L567F (Homo sapiens, UniProt Q9Y6A5); sequence looked up) | CLTC 358-574 (Homo sapiens, UniProt Q00610) | peptide array | peptide |  | binds
B9 (dnaC 1-245) | dnaB 1-471 T86A (Escherichia coli, UniProt P0ACB0) | pull-down |  |  | binds
B10 (lptC 24-191) | LptB2FG C204A/C28S/C91T, MTSL spin label (Escherichia coli, UniProt P0A9V1) | CW EPR spectroscopy |  | in nanodiscs | binds
B11 (CENPI 57-281) | CENP-H/CENP-K (Homo sapiens) | SEC |  |  | binds
B12 (CCDC32 101-179) | Ap2m1 122-435 (Mus musculus, UniProt P84091) | pull-down |  |  | binds
B13 (CNOT2 350-540) | PUM1 589-1186 (Homo sapiens, UniProt Q14671) | cross-linking |  |  | binds
B14 (GPATCH4) | DDX21 (Homo sapiens, UniProt Q9NR30) | pull-down |  |  | binds
B15 (ATG9 864-997) | ATG23 A34E (Saccharomyces cerevisiae, UniProt Q06671) | pull-down |  | 15 minutes, 4 °C | binds
B16 (Sgip1 69-156) | Ap2b1 1-592 (Mus musculus, UniProt Q9DBG3) | cryo-EM |  |  | binds
B17 (prw1 1-431) | pst2 1-1075 (Schizosaccharomyces pombe, UniProt O13919) | cryo-EM |  |  | binds
B18 | Creb1 bZIP-BR 270-341 S270C/C300S/C337S (Rattus norvegicus, UniProt P15337-1) | smFRET |  |  | binds
B19 (TFC7 1-435) | TFC3 1-1160 (Saccharomyces cerevisiae, UniProt P34111) | cryo-EM |  |  | binds

For quick reference, copied from above:
Substance | partner | test | system | conditions | binding
B8 (VPS71) | ARP6 (Saccharomyces cerevisiae, UniProt Q12509) | cryo-EM |  |  | binds
KESALRKQDLLLEFDPLFR (TACC3 to 568 550-568 S558D/Y560L/K562E/L567F (Homo sapiens, UniProt Q9Y6A5); sequence looked up) | CLTC 358-574 (Homo sapiens, UniProt Q00610) | peptide array | peptide |  | binds
B9 (dnaC 1-245) | dnaB 1-471 T86A (Escherichia coli, UniProt P0ACB0) | pull-down |  |  | binds
